Measurements collected from several papers.
Numbered parts are unrelated; each lists some results of a single study.

Study 1 — technique: protein binding microarray; form: double-stranded DNA, one strand shown; sample: in vitro; tested at: not given; relative to: not given; reading: higher = stronger binding
Target: Histone acetyltransferase KAT6A, both winged helices, GST fusion (KAT6A, Homo sapiens, UniProt Q92794, residues 1-181)
Notes: 8-mer, flanks averaged, mean of 2 arrays, mostly near background
Residues (chain): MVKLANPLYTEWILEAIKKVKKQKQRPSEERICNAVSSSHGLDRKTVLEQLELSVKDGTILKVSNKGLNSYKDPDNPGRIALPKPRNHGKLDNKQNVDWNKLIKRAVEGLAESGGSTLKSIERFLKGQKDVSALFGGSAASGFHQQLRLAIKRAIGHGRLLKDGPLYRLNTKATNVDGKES
| Strand | E-score |
| --- | --- |
| CGTTATAG | -0.0747 |
| CCTACAAG | -0.183 |
| TCTAAAAA | -0.0342 |
| AAGCATAT | -0.083 |
| CTCTTTTA | -0.163 |
| CCTCTGGA | -0.124 |
| CGTCGAAC | 0.0941 |
| CCCGAATA | 0.101 |
| GTTACGAA | 0.0337 |
| TAACCTAA | -0.0957 |
| ATAACAGA | -0.0663 |
| GCACTTAC | 0.0323 |
| ACCAACAC | -0.0698 |
| AGAAGCAT | -0.148 |
| CTGTGCAA | -0.176 |
| GATTTAAA | -0.113 |
| CAGAGATA | -0.136 |
| CCGCCCAC | 0.161 |
| ACTGTCGC | 0.0951 |
| GGGGATTA | -0.138 |
| GCGTTGCA | 0.122 |

Study 2 — technique: RNA Bind-n-Seq; form: RNA; sample: in vitro; tested at: 200 nM; notes: whole 134-nt RNA, ends assumed; together with: 150 mM KCl; relative to: input library; reading: higher = stronger binding
Target: Fragile X messenger ribonucleoprotein 1, C-terminal low-complexity region (Fmr1, Mus musculus, UniProt P35922)
Shared flanks, not repeated: GGGAGUUCUACAGUCCGACGAUC … UGGAAUUCUCGGGUGUCAAGG
| Strand | log2 enrichment |
| --- | --- |
| UCCUCAAGUCCUGUGCUACACAUCGUAUGUACCGAAUCGGGUGGGUGGGUGGAAAGUAUUAUGUUACGCCGUUCGGAUCUGCACUUCCAG | 1.56 |
| AGUCCUGUGCUACACAUCGUAUGUACCGAAUCGGAAAAAAAGGUUUGGUUUUUUUGGAAAGUAUUAUGUUACGCCGUUCGGAUCUGCACU | -1.26 |
| AGUCCUGUGCUACACAUCGUAUGUACCGAAUCAAACCCCCAAACCCAAACCCCCAAAAAAGUAUUAUGUUACGCCGUUCGGAUCUGCACU | -0.38 |
| GUCCUGUGCUACACAUCGUAUGUACCGAAUCAAAUUUUUAAACCCCCAAACCCCCAAAAAAGUAUUAUGUUACGCCGUUCGGAUCUGCAC | -0.398 |
| CACAGACAACACGCACCCACACAGACACAGAGGGAAGGGGUUGGGAUGGGGACAGGGUGCACAGCAGGGCGGGGUAGGACCCCAGUCCCU | 1.29 |
| CUCAAGUCCUGUGCUACACAUCGUAUGUACCGAAUCGGUUUGGAAAAAGGUGGAAAGUAUUAUGUUACGCCGUUCGGAUCUGCACUUCCA | -0.0323 |
| AGUCCUGUGCUACACAUCGUAUGUACCGAAUCGGGGAGGGGAAAGGGGUUUUUGGGGAAAGUAUUAUGUUACGCCGUUCGGAUCUGCACU | 0.669 |
| UAUGCCACGCCCUUUGAGGACUCGAAGAUCAUGGUCUCUGACUUUGGACUCUCCAAAAUCCAGGCUGGGAACAUGCUAGGCACCGCCUGU | 0.176 |
| UGCCUCCCUGCUGCAGAAAUACACCGACAACAGCGAGAAGCCAUCCGGGAAGAGACUGUGCAAAACCAAACACUUGAUCCCUCAGGAGUC | -0.198 |

Study 3 — technique: RNA Bind-n-Seq; form: RNA; sample: in vitro; tested at: 365 nM; relative to: no-protein control; reading: higher = stronger binding
Target: RNA binding protein fox-1 homolog 2, RRM domain, GST-SBP tag (RBFOX2, Homo sapiens, UniProt O43251-10, residues 100-194)
Notes: natural RNA segment, single round, ends assumed
Shared flanks, not repeated: GGGAGUUCUACAGUCCGACGAUC … UGGAAUUCUCGGGUGCCAA
Target sequence (chain): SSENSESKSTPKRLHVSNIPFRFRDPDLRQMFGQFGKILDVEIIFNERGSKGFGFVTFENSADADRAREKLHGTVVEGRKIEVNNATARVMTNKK
| Strand | RBNS enrichment (R) |
| --- | --- |
| ACCCUACAGUAGAUCCCUCUGCUUGGGUUUCAACUGGAGAUAGUGCCUUCCCCUGAUAACCAUUUUAACCCAUGGCCUUCGUCAAAACCCUUUCAUUUAGCUACUUCAAA | 0.505 |
| UGAGGUGACUUGUAAAGAUUUUGUUAAGCUCAGGAUUUUUAAUAACACAGUUCACAAAACAGUACAAGGCAGUAUGACGAGAACUCAUCUUUGCUAACCUCAGCAGUUAC | 0.355 |
| UUUGUGGUGUCAGAACUGGAAAAAGCACUUUCCCUUCGGGCAUUUCUGGAAAUGAUUAUUAAUCCACAAAGAAGAACUCUGUAAGCUUUUUCUUGAAUUGUAGCCAGUGA | 0.588 |
| ACUUCUUCCUGCCUUGGUUUCCCCGUCAGAAAUGGGGAACAGUGGUAGCUACCUCAUAACUUGUAAAGAAUCCAAUGAAUUAAAACACAGGUCUCAGUAUUAGCUUGUAU | 0.381 |
| GUAUUCAUCUGAUUUUUAAAUUAUGUAAAAUGUAAAUCAGCCAAGUAUGUCAUCCGUUAUAGUUUCCCCAUGCUUUCAGCGCAUGGCCAUGAGAUUUUUACAUGUGCAUA | 0.376 |
| AAAGGGGGUCAAGAAAAGAGCAACAAAGCAAAAUUGUUCUUCCUCUUCCCUUCCCUGAUGCCAGGGGCACCAGACUGAUUCUGAGGCACAAAUAAAAGCGGUUUCAAACC | 0.229 |
| CCCCCCAGGUAGACAGGUGCAUUUUGACCCUUCUGGACAGAAGAAACAAUGUGUUUUCCACCCCACCCAAUGGGAUUGUUGAAGUAUUAACUGUGCUAAGAGAUCUUGAC | 0.305 |
| AUUGCCCUGCCAUCCAUGAAAACUGUUCUGGCACCAAAAGUAAUGACAAAUGUUAAGUGUAAUAAUAGAAAAGUAGAGCAAAGAGCCAUUCAGCUUCAGUCUUUACAUAC | 0.323 |

Study 4 — technique: universal PBM; form: double-stranded DNA, one strand shown; sample: in vitro; tested at: 600 nM; reading: higher = stronger binding
Target: Sal-like protein 4, full length isoform A (SALL4, Homo sapiens, UniProt Q9UJQ4, residues 1-1053)
UniProt Q9UJQ4, sequence (whole entry, looked up): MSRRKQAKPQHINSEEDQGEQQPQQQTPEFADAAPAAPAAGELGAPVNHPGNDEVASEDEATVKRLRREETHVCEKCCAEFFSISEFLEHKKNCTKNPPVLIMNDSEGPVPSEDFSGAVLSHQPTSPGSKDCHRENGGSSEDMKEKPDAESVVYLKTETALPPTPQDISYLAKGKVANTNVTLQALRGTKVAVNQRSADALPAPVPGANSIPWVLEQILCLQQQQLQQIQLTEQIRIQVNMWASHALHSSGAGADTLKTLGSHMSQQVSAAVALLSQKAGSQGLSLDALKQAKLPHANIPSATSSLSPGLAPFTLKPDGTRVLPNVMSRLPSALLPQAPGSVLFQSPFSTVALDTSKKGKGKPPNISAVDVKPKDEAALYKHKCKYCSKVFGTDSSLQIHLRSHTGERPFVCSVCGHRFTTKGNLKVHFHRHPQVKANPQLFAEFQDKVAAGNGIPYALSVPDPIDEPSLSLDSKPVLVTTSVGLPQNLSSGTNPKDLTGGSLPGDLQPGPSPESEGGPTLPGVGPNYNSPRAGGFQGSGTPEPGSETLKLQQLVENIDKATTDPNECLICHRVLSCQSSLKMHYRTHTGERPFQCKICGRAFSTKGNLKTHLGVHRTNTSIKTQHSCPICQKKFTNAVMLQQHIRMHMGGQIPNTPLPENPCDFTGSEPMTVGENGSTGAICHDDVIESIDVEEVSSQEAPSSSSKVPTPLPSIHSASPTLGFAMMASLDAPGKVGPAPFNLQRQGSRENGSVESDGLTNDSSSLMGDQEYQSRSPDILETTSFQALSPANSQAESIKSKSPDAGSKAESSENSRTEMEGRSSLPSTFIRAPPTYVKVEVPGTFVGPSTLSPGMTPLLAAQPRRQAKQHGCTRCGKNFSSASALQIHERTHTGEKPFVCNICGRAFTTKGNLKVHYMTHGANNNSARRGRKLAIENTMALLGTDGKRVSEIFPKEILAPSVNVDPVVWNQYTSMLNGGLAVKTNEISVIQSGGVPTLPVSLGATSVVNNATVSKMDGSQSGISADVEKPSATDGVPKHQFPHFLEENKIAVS
Notes: 8-mer, flanks averaged, mean of replicates
| Strand | E-score |
| --- | --- |
| GCAGAGCC | -0.263 |
| AACGTCGG | -0.16 |
| TGAATCCA | 0.151 |
| GCTGTAGA | -0.0111 |
| ATTTTTAG | 0.206 |
| ACATCGAT | 0.142 |
| CAAATCCA | 0.122 |
| CGCTGGAA | -0.222 |
| AAGTCCCA | -0.0378 |
| ATGCAAAG | 0.144 |
| AATAAAGC | 0.267 |
| GCGTGTGA | 0.00958 |
| AAGCTAAT | 0.217 |
| AGTACAGA | 0.152 |
| AGTGGGAG | -0.153 |
| CCACCCAA | -0.114 |
| AATGATGG | 0.142 |

Repeated from above (study 4):
| Strand | E-score |
| --- | --- |
| AACGTCGG | -0.16 |
| ATTTTTAG | 0.206 |
| GCGTGTGA | 0.00958 |
| AATAAAGC | 0.267 |
| GCAGAGCC | -0.263 |
| CAAATCCA | 0.122 |
| ATGCAAAG | 0.144 |
